Experimental data pooled from the literature.
UniProt Q16620, sequence (whole entry, looked up): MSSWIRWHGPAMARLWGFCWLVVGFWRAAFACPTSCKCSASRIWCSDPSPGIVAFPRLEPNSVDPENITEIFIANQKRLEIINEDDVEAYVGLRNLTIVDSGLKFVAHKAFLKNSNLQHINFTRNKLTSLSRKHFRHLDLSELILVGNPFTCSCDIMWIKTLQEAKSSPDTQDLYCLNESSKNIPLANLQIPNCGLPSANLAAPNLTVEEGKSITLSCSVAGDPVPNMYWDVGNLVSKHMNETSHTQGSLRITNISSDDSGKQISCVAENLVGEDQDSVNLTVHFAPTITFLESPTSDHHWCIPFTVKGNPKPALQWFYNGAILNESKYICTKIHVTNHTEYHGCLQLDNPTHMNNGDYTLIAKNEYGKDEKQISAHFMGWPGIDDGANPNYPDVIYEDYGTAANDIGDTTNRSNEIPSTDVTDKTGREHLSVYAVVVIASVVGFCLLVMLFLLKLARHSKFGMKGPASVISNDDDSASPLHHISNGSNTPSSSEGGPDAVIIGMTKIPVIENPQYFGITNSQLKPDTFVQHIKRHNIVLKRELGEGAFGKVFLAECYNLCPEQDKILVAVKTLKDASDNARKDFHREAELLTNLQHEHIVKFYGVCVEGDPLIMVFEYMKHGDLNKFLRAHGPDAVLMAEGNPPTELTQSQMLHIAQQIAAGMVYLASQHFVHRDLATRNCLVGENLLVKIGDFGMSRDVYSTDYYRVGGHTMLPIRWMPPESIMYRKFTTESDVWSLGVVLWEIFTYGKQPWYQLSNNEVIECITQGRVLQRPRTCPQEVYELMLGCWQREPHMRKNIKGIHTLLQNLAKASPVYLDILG
UniProt P80192, sequence (whole entry, looked up): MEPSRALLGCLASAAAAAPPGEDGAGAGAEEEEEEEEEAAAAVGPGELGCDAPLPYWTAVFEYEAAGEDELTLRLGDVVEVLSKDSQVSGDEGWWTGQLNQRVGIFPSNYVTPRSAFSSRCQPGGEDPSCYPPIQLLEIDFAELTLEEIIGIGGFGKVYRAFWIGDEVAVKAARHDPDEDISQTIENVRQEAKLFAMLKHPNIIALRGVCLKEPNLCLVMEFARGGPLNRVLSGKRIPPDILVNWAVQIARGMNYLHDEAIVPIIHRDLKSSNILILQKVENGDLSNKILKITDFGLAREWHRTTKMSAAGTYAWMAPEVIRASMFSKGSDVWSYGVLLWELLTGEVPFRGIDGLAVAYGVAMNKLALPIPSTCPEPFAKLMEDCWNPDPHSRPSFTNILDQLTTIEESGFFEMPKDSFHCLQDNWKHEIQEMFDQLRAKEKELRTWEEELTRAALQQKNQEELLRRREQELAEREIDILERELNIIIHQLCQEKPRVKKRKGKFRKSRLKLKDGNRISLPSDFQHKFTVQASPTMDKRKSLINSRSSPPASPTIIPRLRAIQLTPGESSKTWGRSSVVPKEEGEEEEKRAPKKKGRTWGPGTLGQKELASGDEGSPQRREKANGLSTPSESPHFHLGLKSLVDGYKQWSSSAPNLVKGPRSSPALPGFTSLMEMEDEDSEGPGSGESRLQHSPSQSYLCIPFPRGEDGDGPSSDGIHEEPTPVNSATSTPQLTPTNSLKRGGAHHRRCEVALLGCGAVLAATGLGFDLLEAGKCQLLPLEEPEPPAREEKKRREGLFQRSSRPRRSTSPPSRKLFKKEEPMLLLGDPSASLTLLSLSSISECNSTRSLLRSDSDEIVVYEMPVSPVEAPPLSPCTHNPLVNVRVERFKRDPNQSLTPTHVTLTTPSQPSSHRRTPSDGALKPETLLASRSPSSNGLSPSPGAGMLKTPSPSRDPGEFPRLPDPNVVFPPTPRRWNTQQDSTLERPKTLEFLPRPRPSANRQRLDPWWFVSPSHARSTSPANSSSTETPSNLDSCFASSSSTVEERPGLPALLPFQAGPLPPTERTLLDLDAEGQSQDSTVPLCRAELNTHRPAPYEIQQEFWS
UniProt Q14012, sequence (whole entry, looked up): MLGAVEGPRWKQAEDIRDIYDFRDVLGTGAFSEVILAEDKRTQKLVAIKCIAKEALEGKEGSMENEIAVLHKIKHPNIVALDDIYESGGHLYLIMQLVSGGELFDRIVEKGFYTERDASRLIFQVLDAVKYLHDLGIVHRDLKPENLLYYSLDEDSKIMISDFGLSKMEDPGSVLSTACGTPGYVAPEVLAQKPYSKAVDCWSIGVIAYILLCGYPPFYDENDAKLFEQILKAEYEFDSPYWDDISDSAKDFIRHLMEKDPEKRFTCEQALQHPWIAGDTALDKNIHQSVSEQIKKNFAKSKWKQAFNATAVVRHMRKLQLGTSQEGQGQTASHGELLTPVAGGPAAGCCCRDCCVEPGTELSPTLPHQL

SMILES	target or system	assay	system	setting	endpoint	value
C=CC(=O)N1CCC(COCC(=O)N2CCN(c3nc(-c4cnc(N)nc4C(F)F)nc(N4CCOC[C@@H]4C)n3)CC2)CC1	MAP3K9 (Homo sapiens, UniProt P80192)	binding, competition with immobilised ligand	–	1 µM	remaining binding	92%
COc1cccc(-c2n[nH]c(SCc3ccccn3)n2)c1OC	–	–	male Sprague-Dawley rat, plasma	intravenous, 1 mg/kg, 8 h, single dose	concentration	0.0498 µg/mL
Cc1noc(C)c1Cn1cc(N2C(=O)CN(Cc3cccc(O)c3)C2=O)cn1	–	–	male Sprague-Dawley rat, plasma	oral, 30 mg/kg, 4 h	concentration	0.0159 µg/mL
NCc1cc2c(cc1F)C(=O)N(C1CCC(=O)NC1=O)C2 (stereo not drawn)	–	–	male CD-1 mouse, plasma	oral, 10 mg/kg, 19.8 min	concentration	0.0886 µg/mL
CNc1ncc2c(/C=C/C(=O)N3CCC(OC)CC3)nn(Cc3cccc(C(F)(F)F)c3)c2n1	NTRK2 (Homo sapiens, UniProt Q16620)	enzyme activity, inhibitor, radiometric	–	1 µM	remaining activity	76%
CCc1cc(-c2noc(-c3cc(OC)nc(C4CCCC4)c3)n2)cc(C)c1OC[C@@H](O)CO	–	–	Wistar rat, plasma	oral, 0.1 mg/kg, 6 h, single dose	concentration	0.0052 µg/mL
O=c1nc(N2CCN(CC3CCCCC3)CC2)sc2c([N+](=O)[O-])cc(C(F)(F)F)cc12	–	–	CD-1 mouse, lung	oral, 100 mg/kg, 24 h	concentration	0.0251 µg/mL
O=C1CCC(N2Cc3cc(CO)c(F)cc3C2=O)C(=O)N1 (stereo not drawn)	–	–	male CD-1 mouse, plasma	intravenous, 1 mg/kg, 4.98 min	concentration	0.82 µg/mL
COc1cc(-c2cncc3c2CN(C)Cc2cc(N4CCNCC4)ccc2-3)cc(OC)c1OC	CAMK1 (Homo sapiens, UniProt Q14012)	enzyme activity, inhibitor	–	1 µM	remaining activity	113%
COc1ccc2c(=O)n(C)c(-c3ccccc3)nc2c1	–	–	male Sprague-Dawley rat, plasma	oral, 30 mg/kg, 30 min	concentration	0.0347 µg/mL
CCCCC(=O)Nc1ccc(-c2ccc3ncn(CCC)c(=O)c3c2)cn1	EGFR (Homo sapiens, UniProt P00533, del752-759)	binding, competition with immobilised ligand	–	0.5 µM	remaining binding	100%
CCOC(=O)[C@@]12C[C@@H]1[C@@H](n1ccc3c(NC)nc(C#Cc4ccc(Cl)s4)nc31)[C@H](O)[C@@H]2O	–	–	male Sprague-Dawley rat, plasma	oral, 1 mg/kg, 4 h	concentration	0.0039 µg/mL

Some of these lines once more:
SMILES	target or system	assay	system	setting	endpoint	value
CCOC(=O)[C@@]12C[C@@H]1[C@@H](n1ccc3c(NC)nc(C#Cc4ccc(Cl)s4)nc31)[C@H](O)[C@@H]2O	–	–	male Sprague-Dawley rat, plasma	oral, 1 mg/kg, 4 h	concentration	0.0039 µg/mL
CNc1ncc2c(/C=C/C(=O)N3CCC(OC)CC3)nn(Cc3cccc(C(F)(F)F)c3)c2n1	NTRK2 (Homo sapiens, UniProt Q16620)	enzyme activity, inhibitor, radiometric	–	1 µM	remaining activity	76%
